# Measured values collected from several papers.
# Each line is one published result; not all experiments were run side by side.
# TDP1: Tyrosyl-DNA phosphodiesterase 1 (TDP1, Homo sapiens, UniProt Q9NUW8)
# Sequence of UniProt Q9NUW8 (whole entry, looked up): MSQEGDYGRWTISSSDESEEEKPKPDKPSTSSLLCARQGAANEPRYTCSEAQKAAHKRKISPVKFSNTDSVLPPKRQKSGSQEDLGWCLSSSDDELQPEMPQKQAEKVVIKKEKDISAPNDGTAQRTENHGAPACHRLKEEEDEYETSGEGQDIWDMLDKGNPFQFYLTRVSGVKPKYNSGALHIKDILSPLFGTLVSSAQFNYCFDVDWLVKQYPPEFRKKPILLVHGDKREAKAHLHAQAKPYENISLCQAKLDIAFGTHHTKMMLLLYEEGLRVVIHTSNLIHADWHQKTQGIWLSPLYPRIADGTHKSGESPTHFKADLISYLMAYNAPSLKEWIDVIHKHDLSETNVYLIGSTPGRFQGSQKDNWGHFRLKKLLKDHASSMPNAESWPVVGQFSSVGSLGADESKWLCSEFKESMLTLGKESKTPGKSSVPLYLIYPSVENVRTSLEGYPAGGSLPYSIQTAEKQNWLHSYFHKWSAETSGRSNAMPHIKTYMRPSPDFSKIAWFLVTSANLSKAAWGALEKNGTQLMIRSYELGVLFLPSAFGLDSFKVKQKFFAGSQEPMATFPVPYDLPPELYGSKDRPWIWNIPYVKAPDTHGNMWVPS
SMILES,tested on,assay,test system,conditions,endpoint,result
CO[C@H]1/C=C/O[C@@]2(C)Oc3c(C)c(O)c4c(c3C2=O)C2=NC3(CCN(CC(C)C)CC3)NC2=C(NC(=O)/C(C)=C\C=C\[C@H](C)[C@H](O)[C@@H](C)[C@@H](O)[C@@H](C)[C@H](OC(=O)c2cccc(F)c2)[C@@H]1C)C4=O,,,CD-1 mouse,"10 mg/kg, single dose",volume of distribution,1.9 L/kg
CCSc1c(C=NOCc2ccc3nc(-c4ccccc4)c(Nc4ccc(C(=O)O)cc4)n3c2)c2ccccc2n1C (mixture of isomers),TDP1,"enzyme activity, inhibitor",,"100 µM, unpurified compound",inhibition,58.8%
CO[C@H]1/C=C/O[C@@]2(C)Oc3c(C)c(O)c4c(c3C2=O)C2=NC3(CCN(CC(C)C)CC3)NC2=C(NC(=O)/C(C)=C\C=C\[C@H](C)[C@H](O)[C@@H](C)[C@@H](O)[C@@H](C)[C@H](OC(=O)c2cccnc2)[C@@H]1C)C4=O,,,CD-1 mouse,"10 mg/kg, single dose",volume of distribution,1.6 L/kg
COC1C=COC2(C)Oc3c(C)c(O)c4c(c3C2=O)C2=NC3(CCN(CC(C)C)CC3)NC2=C(NC(=O)C(C)=CC=CC(C)C(O)C(C)C(O)C(C)C(OC(=O)c2cccnc2)C1C)C4=O (stereo not shown),,,"CD-1 mouse, female, plasma","intravenous, 5 mg/kg",volume of distribution,1.8 L/kg
Cc1ncsc1-c1ccc(CNC(=O)[C@@H]2C[C@@H](O)CN2C(=O)[C@@H](NC(=O)COCC(C)(COCCOCCOCCNC(=O)C[C@@H]2N=C(c3ccc(Cl)cc3)c3c(sc(C)c3C)-n3c(C)nnc32)COCCOCCOCCNC(=O)C[C@@H]2N=C(c3ccc(Cl)cc3)c3c(sc(C)c3C)-n3c(C)nnc32)C(C)(C)C)cc1,,,"C57BL/6 mouse male, plasma","intravenous, 5 mg/kg",volume of distribution at steady state,0.349 L/kg
CS(=O)(=O)c1ccc(C=NOCc2ccc(-c3nc4cc(-c5ccccc5)ccn4c3Nc3ccc(C(=O)O)cc3)cc2)c(Cl)c1,TDP1,"enzyme activity, inhibitor",,"100 µM, unpurified compound",inhibition,55.8%
O=[N][Fe]1([N]=O)[S](CCO)[Fe]([N]=O)([N]=O)[S]1CCO,,,"C57BL/6JNarl mouse, plasma","oral, dose not given",volume of distribution,0.32 L
COC1C=COC2(C)Oc3c(C)c(O)c4c(c3C2=O)C2=NC3(CCN(CC(C)C)CC3)NC2=C(NC(=O)C(C)=CC=CC(C)C(O)C(C)C(O)C(C)C(OC(=O)c2cncnc2)C1C)C4=O (stereo not shown),,,"CD-1 mouse, female, plasma","intravenous, 5 mg/kg",volume of distribution,2.4 L/kg
CN[C@H](CC(C)C)C(=O)N[C@H]1C(=O)N[C@@H](CC(N)=O)C(=O)N[C@H]2C(=N)N[C@H]3C(=O)N[C@H](C(=O)N[C@H](C(=O)NCCC[N+](C)(C)C)c4cc(O)cc(O)c4-c4cc3ccc4O)[C@H](O)c3ccc(c(Cl)c3)Oc3cc2cc(c3O[C@@H]2O[C@H](CO)[C@@H](O)[C@H](O)[C@H]2O[C@H]2C[C@](C)(NCc3ccc(-c4ccc(Cl)cc4)cc3)[C@H](O)[C@H](C)O2)Oc2ccc(cc2Cl)[C@H]1O,,,mouse,"intravenous, 50 mg/kg",volume of distribution,0.12 L/kg
Nc1ccc(-c2ccc(F)cc2)cc1NC(=O)C1CCOCC1,,,"C57BL/6 mouse, male, plasma","intraperitoneal, 10 mg/kg",volume of distribution,1.9 L/kg

# For quick reference, copied from above:
SMILES,tested on,assay,test system,conditions,endpoint,result
CS(=O)(=O)c1ccc(C=NOCc2ccc(-c3nc4cc(-c5ccccc5)ccn4c3Nc3ccc(C(=O)O)cc3)cc2)c(Cl)c1,TDP1,"enzyme activity, inhibitor",,"100 µM, unpurified compound",inhibition,55.8%
